Measurements from different studies.
“And” joins repeats or separate records; there may be more than shown. ± marks the error that the study gave.
B1: UGT1A9 (Homo sapiens, UniProt O60656); chain GKLLVVPMDGSHWFTMRSVVEKLILRGHEVVVVMPEVSWQLGRSLNCTVKTYSTSYTLEDLDREFKAFAHAQWKAQVRSIYSLLMGSYNDIFDLFFSNCRSLFKDKKLVEYLKESSFDAVFLDPFDNCGLIVAKYFSLPSVVFARGILCHYLEEGAQCPAPLSYVPRILLGFSDAMTFKERVRNHIMHLEEHLLCHRFFKNALEIASEILQTPVTEYDLYSHTSIWLLRTDFVLDYPKPVMPNMIFIGGINCHQGKPLPMEFEAYINASGEHGIVVFSLGSMVSEIPEKKAMAIADALGKIPQTVLWRYTGTRPSNLANNTILVKWLPQNDLLGHPMTRAFITHAGSHGVYESICNGVPMVMMPLFGDQMDNAKRMETKGAGVTLNVLEMTSEDLENALKAVINDKSYKENIMRLSSLHKDRPVEPLDLAVFWVEFVMRHKGAPHLRPAAHDLTWYQYHSLDVIGFLLAVVLTVAFITFKCCAYGYRKCLGKKGRVKKAHKSKTH

| Molecule | tested on | assay | system | conditions | how to read | measurement | value |
| --- | --- | --- | --- | --- | --- | --- | --- |
| CC[C@H](C)[C@@H]1NC(=O)[C@H](Cc2ccc(O)cc2)NC(=O)[C@@H](N)CSSC[C@@H](C(=O)N2CCC[C@H]2C(=O)N[C@@H](CC(C)C)C(=O)NCC(N)=O)NC(=O)[C@H](CC(N)=O)NC(=O)[C@H](CCC(N)=O)NC1=O |  | microdialysis, radioimmunoassay | knock-out male mice lacking compound, amygdala extracellular fluid | intranasal, 12 µg |  | Cmax | 3.84 pg/sample |
| COC(=O)Nc1nc2ccc(Sc3ccccc3)cc2[nH]1 |  | shake-flask | Captex 355 | 37 °C |  | thermodynamic solubility | 0.19 mg/g |
| des-acyl ghrelin (human) |  |  | wild-type mice, olfactory bulb | intravenous, dose not given, 10 min, vascular space corrected |  | tissue/serum ratio | 16.1 µL/g |
| CC(=O)c1c(C)c2cnc(Nc3ccc(N4CCNCC4)cn3)nc2n(C2CCCC2)c1=O |  |  | human patients, plasma | oral, 125 mg once daily, cycle 1 day 15, steady state, with: letrozole 2.5 mg once daily |  | AUC(tau), geometric mean | 1980 ng·h/mL |
| CC1=C2C[C@H]3[C@@H](CC[C@@H]4C[C@H](NS(C)(=O)=O)CC[C@@]43C)[C@@H]2CC[C@@]2(C1)O[C@@H]1C[C@H](C)CN[C@H]1[C@H]2C |  |  | patients, plasma | oral, 40 mg daily, day 22, cycle 1 |  | AUC(0-24) | 800 ng·h/mL |
| CCCC[C@H](NC(C)=O)C(=O)N[C@H]1CCC(=O)NC[C@@H](C(=O)N[C@@H](Cc2c[nH]c3ccccc23)C(N)=O)NC(=O)[C@H](CCCNC(=N)N)NC(=O)[C@@H](Cc2ccccc2)NC(=O)[C@H](Cc2c[nH]cn2)NC1=O |  |  | healthy volunteers, both sexes, plasma | subcutaneous, 1.0 mg once daily, day 1 |  | median Cmax | 18.5 ng/mL |
| CN1CC[C@@H](NC(=O)Nc2ccc(C#N)cc2)C[C@@H]1c1nc2ccccc2[nH]1 |  |  | Japanese patients, plasma | oral, 25 mg once daily, cycle 1 day 21, steady state, geometric mean |  | average plasma concentration | 190 ng/mL |
| Oc1ccc2c3c(cnc2c1)-c1ccc(C(F)(F)F)cc1O[C@@H]3c1ccc(OCCN2CC(CF)C2)cc1 |  |  | human, healthy female, urine and faeces | oral, 400 mg, 480 h |  | total radioactivity recovery | 97.5% |
| CC[C@H](C)[C@H](NC(=O)[C@H](CC(C)C)NC(=O)[C@H](Cc1c[nH]c2ccccc12)NC(=O)[C@H](C)NC(=O)[C@@H](NC(=O)[C@H](Cc1ccccc1)NC(=O)[C@H](CC(=O)O)NC(=O)[C@H](CCCNC(=N)N)NC(=O)[C@H](C)NC(=O)[C@H](C)NC(=O)[C@H](CC(C)C)NC(=O)[C@H](C)NC(=O)[C@H](CC(=O)O)NC(=O)[C@H](CC(C)C)NC(=O)[C@@H](NC(=O)[C@@H](NC(=O)[C@H](C)NC(=O)[C@H](CC(C)C)NC(=O)[C@H](CCC(=O)O)NC(=O)[C@H](CO)NC(=O)[C@H](CO)NC(=O)[C@H](Cc1ccccc1)NC(=O)[C@@H](NC(=O)CNC(=O)[C@H](CCC(=O)O)NC(=O)CNC(=O)[C@@H](N)Cc1cnc[nH]1)[C@@H](C)O)[C@@H](C)O)[C@@H](C)CC)[C@@H](C)CC)C(=O)N[C@@H](C)C(=O)N[C@H](C(=O)N[C@@H](CCCCN)C(=O)N[C@H](C(=O)N[C@H](C(=O)N[C@@H](CC(=O)O)C(=O)N[C@@H](CCCCN)C(=O)N[C@@H](CCCCN)C(=O)N[C@@H](CCCCN)C(=O)N[C@@H](CCCCN)C(=O)N[C@@H](CCCCN)C(=O)N[C@@H](CCCCN)C(N)=O)[C@@H](C)O)[C@@H](C)CC)[C@@H](C)O |  | immunoaffinity LC-MS/MS | healthy human subjects, plasma | intravenous infusion, 1 mg single dose, infused over 15 min |  | AUClast | 0.0371 µM·h |
| O=C(O)CCCCCCC(=O)O |  |  | human hemodialysis patients, plasma | pre-treatment | baseline: hemodialysis over normal subjects | total plasma concentration ratio | 6 |
| CCN1CCN(Cc2ccc(-c3cc4c(N[C@H](C)c5ccccc5)ncnc4[nH]3)cc2)CC1 |  |  | human, tumour tissue | 250 mg, 12 h after dose |  | tumour concentration | 1280 ng/mL |
| Cc1cc(Oc2nccc3occc23)ccc1-c1c(C)c(=O)[nH]c(=O)n1C |  |  | Swiss albino male mice, brain and plasma | intraperitoneal, 50 mg/kg |  | duration of stable levels | ≥ 4 h |
| CNc1nc(Nc2ccc(-n3cnc(C)n3)c(OC)c2)nc2c1CC[C@H]2c1ccc(F)cc1 |  |  | human, plasma | oral, 50 mg, multiple doses, once daily |  | Tmax | 5 h |
| CC(C)/N=c1\cc2n(-c3ccc(Cl)cc3)c3ccccc3nc-2cc1Nc1ccc(Cl)cc1 |  | shake-flask | PEG400 | 37 °C |  | thermodynamic solubility | 13.2 ± 0.61 mg/g |
| RWRTNF |  | substrate, gel electrophoresis | peptide, mouse, PyMT tumour, PyMT tumour tissue extract | 5 µM, 16 h, 37 °C, 2% extract, 1 mM ZnCl2 |  | peptide cleavage | > 90% and > 80% |
| B1 (UGT1A9) | O=c1c(O)c(-c2ccc(O)cc2)oc2ccc(O)cc12 | steady-state kinetics |  | pH 7.4, 37 °C |  | Vmax/Km | 22000 µL/min/mg |
| COc1cc(OC)c(/C=C/S(=O)(=O)Cc2ccc(OC)c(NCC(=O)O)c2)c(OC)c1 |  |  | cancer patients, phase I, plasma | oral, 140 mg twice daily, day 21 cycle 1 |  | half-life | 25.7 ± 38.3 h |
| C[C@@H](c1ncncc1F)[C@](O)(Cn1cncn1)c1ccc(F)cc1F |  | LC-MS/MS | Chinese patients, hematological disorders, plasma | 200 mg every 12 h, steady state |  | median trough concentration | 2.1 µg/mL |
| Oc1ccc(C(c2ccc(O)cc2)(C(F)(F)F)C(F)(F)F)cc1 |  | refers to: free compound | Hsd:Sprague Dawley rat female, plasma | oral gavage, 110 mg/kg single dose |  | alpha half-life | 0.422 h |
| COc1cnc(C(=O)Nc2ccc(F)c([C@]34CN(c5ncc(F)cn5)C[C@H]3CSC(N)=N4)c2)cn1 |  |  | PDAPP mice, brain | oral, 0.3 mg/kg, 3 h |  | brain concentration | 28.1 nM |

Repeated from above:
| Molecule | tested on | assay | system | conditions | how to read | measurement | value |
| --- | --- | --- | --- | --- | --- | --- | --- |
| CC(C)/N=c1\cc2n(-c3ccc(Cl)cc3)c3ccccc3nc-2cc1Nc1ccc(Cl)cc1 |  | shake-flask | PEG400 | 37 °C |  | thermodynamic solubility | 13.2 ± 0.61 mg/g |
